Experimental data from different studies.
Each line is one published result; not all experiments were run side by side. Several values in a cell are separate wells, animals, samples, runs or records. ± gives the spread as reported.
INSR: Insulin receptor (INSR, Homo sapiens, UniProt P06213)
Chain of UniProt P06213 (whole entry, looked up): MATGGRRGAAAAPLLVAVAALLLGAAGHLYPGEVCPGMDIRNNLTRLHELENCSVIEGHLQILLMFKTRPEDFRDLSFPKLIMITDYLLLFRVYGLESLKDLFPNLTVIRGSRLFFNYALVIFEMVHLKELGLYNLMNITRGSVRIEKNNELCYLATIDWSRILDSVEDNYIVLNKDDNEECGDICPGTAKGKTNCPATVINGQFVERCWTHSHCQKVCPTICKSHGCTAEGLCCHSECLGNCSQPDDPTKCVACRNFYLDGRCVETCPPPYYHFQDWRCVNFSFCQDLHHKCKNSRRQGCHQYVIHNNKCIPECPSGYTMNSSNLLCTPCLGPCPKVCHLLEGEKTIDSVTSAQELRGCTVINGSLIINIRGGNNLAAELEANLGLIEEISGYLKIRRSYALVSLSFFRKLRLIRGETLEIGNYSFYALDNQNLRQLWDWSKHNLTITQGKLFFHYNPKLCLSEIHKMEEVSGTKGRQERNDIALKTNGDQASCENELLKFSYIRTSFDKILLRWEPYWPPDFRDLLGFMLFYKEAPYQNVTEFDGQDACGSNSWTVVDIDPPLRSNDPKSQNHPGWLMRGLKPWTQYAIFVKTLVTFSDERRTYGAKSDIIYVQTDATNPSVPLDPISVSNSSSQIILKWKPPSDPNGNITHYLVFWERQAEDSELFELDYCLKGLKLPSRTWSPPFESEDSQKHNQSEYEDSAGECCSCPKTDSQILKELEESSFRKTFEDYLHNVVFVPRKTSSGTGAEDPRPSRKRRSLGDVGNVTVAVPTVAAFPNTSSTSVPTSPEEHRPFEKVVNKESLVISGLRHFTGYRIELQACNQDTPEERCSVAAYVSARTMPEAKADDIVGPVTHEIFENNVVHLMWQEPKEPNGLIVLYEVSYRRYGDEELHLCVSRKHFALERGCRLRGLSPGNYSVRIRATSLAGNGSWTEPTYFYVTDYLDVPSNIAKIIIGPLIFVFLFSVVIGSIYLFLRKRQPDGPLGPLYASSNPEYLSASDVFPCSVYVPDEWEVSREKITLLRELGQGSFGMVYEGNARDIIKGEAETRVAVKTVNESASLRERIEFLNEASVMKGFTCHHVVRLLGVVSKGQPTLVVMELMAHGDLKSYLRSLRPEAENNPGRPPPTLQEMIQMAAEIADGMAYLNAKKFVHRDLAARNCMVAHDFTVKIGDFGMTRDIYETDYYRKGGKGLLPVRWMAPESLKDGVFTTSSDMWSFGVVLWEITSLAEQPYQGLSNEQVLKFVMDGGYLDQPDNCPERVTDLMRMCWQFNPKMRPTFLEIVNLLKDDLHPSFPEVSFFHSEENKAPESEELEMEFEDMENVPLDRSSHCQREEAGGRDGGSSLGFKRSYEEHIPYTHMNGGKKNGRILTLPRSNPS
USP16 ZnF-UBD domain: Ubiquitin carboxyl-terminal hydrolase 16, ZnF-UBD domain (USP16, Homo sapiens, UniProt Q9Y5T5)
Chain of UniProt Q9Y5T5 (whole entry, looked up): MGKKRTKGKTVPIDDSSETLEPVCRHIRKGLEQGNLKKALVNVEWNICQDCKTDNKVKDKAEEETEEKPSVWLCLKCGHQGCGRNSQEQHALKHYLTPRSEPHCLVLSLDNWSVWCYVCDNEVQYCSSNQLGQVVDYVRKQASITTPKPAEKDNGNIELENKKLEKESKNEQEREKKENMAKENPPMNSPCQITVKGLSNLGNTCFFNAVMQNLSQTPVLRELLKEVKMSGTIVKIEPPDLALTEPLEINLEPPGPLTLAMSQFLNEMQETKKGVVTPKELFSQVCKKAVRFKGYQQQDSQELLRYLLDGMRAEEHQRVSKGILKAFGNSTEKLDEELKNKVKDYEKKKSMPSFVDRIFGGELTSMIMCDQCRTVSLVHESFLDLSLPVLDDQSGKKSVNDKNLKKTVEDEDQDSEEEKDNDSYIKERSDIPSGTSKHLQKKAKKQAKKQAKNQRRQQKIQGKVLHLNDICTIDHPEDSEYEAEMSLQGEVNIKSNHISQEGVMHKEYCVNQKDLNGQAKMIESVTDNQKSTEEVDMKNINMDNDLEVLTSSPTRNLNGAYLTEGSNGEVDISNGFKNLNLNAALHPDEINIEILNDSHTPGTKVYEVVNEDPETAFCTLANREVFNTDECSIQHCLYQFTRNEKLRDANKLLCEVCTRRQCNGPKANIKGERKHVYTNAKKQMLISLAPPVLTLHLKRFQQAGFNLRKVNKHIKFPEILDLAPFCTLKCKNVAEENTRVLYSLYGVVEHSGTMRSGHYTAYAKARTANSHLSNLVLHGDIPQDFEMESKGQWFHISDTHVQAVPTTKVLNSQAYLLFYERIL
ERBB2: Receptor tyrosine-protein kinase erbB-2 (ERBB2, Homo sapiens, UniProt P04626)
TAOK1: Serine/threonine-protein kinase TAO1 (TAOK1, Homo sapiens, UniProt Q7L7X3)
Chain of UniProt Q7L7X3 (whole entry, looked up): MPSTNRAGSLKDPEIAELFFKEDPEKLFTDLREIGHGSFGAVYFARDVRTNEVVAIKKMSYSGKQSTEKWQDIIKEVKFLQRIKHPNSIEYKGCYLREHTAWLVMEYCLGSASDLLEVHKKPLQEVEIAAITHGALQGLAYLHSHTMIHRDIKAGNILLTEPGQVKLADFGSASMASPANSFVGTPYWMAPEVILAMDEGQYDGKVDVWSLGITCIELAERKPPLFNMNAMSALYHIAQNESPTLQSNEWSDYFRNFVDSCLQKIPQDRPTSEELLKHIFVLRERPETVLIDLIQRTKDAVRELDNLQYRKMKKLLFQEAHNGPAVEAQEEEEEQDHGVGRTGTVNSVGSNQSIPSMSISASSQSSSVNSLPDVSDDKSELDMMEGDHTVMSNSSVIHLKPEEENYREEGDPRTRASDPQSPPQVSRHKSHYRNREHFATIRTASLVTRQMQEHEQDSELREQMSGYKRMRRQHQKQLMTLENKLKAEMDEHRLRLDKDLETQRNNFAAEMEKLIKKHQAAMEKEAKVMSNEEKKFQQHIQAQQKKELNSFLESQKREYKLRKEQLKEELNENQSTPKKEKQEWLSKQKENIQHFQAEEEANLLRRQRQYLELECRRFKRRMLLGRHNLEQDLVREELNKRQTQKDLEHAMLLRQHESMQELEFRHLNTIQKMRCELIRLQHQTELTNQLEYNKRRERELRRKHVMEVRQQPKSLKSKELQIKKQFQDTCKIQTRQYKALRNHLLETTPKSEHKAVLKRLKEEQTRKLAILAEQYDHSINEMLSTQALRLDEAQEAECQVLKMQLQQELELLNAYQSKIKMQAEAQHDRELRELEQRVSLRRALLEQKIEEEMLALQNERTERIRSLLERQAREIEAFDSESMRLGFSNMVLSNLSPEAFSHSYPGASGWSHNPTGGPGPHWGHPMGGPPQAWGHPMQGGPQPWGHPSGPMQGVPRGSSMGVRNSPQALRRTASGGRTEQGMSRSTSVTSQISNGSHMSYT
Chain of UniProt Q92626 (whole entry, looked up): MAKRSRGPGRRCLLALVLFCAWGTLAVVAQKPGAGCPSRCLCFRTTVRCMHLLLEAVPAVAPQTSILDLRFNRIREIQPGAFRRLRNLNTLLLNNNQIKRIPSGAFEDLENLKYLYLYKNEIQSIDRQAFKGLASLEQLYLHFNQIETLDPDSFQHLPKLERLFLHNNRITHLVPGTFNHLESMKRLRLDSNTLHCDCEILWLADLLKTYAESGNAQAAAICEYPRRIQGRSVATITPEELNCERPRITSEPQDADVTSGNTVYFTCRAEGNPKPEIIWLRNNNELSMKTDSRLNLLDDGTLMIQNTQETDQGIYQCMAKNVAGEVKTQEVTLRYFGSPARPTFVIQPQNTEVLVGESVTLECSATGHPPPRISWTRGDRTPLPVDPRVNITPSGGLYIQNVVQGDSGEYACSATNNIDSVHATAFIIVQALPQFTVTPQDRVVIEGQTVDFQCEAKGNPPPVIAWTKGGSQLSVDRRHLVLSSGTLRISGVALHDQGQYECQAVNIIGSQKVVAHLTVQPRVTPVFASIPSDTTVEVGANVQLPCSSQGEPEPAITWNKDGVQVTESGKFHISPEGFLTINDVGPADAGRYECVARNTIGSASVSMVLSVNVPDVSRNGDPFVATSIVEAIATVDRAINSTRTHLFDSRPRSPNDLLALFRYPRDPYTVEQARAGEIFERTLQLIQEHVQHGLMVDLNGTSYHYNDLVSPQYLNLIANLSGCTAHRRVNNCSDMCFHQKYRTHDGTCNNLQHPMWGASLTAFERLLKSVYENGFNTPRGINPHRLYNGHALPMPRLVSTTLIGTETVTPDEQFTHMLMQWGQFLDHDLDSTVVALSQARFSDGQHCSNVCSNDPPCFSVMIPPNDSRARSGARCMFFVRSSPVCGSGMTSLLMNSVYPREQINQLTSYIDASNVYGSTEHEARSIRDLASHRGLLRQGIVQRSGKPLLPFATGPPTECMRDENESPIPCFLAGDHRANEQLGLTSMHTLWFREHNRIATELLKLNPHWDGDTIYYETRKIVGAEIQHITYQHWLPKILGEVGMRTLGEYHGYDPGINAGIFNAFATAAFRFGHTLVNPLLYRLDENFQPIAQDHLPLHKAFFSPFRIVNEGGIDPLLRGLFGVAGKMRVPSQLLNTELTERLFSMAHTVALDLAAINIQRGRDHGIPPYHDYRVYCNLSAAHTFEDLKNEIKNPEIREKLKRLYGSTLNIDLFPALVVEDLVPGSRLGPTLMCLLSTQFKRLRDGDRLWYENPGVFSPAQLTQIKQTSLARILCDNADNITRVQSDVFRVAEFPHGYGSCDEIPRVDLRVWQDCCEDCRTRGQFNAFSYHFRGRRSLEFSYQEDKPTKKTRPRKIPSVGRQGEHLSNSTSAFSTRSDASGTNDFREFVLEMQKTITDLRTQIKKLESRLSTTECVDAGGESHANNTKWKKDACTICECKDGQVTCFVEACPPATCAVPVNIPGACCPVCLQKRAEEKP
Chain of UniProt P48729 (whole entry, looked up): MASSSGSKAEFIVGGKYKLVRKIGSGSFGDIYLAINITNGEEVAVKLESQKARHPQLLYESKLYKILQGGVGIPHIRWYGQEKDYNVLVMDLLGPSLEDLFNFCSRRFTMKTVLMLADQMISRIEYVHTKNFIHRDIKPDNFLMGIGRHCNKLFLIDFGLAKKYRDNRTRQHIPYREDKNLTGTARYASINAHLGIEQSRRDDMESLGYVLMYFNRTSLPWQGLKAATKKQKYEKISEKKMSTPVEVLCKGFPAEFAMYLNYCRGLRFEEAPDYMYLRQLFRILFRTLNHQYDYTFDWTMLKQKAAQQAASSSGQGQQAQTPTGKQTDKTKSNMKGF

SMILES | target or system | test | system | setting | how to read | quantity | value
COc1cc(N2CCN(C)CC2)ccc1Nc1nc(N)n(C(=O)NCc2ccccc2S(=O)(=O)C(C)C)n1 | INSR | enzyme activity | – | 10 µM | relative to: control | remaining activity | 0.4%
C/C(=C/C(=O)O)C(=O)O | – | binding, MIDAS equilibrium dialysis LC-MS | A2AR-BRIL thermostabilized | concentration not given | relative to: no-protein control | log2 fold change | 0.0764
C[C@@H](Oc1ccc(S(C)(=O)=O)cc1C(=O)N1C[C@@H]2C[C@]2(c2cc(C(F)(F)F)on2)C1)C(F)(F)F | Sodium- and chloride-dependent glycine transporter 1 (SLC6A9, Homo sapiens, UniProt P48067, L476T) | glycine uptake, inhibitor, [3H]glycine uptake | – | 0.0001 µM, L422T mutant, log concentration -1, added: [3H]glycine | relative to: no inhibitor | remaining activity | 82.2%
O=C(O)Cn1cnc2ccccc2c1=O | USP16 ZnF-UBD domain | – | – | – | – | Kd | 456 µM
COc1cc(-c2cncc3c2CN(C)Cc2cc(N4CCNCC4)ccc2-3)cc(OC)c1OC | Activin receptor type-1-like (ACVRL1, Homo sapiens, UniProt P37023) | kinase activity | – | 1 µM, human enzyme, added: ATP 10 µM | relative to: DMSO control | remaining activity | 3%
COc1cc(N2CCN(C)CC2)ccc1Nc1nc(N)n(C(=O)NCc2c(Cl)cccc2Cl)n1 | INSR | enzyme activity | – | 10 µM | relative to: control | remaining activity | 4.6%
O=C1NC(=O)/C(=C/c2ccc(-c3ccc(F)cc3O)o2)S1 | INSR | enzyme activity | – | 10 µM | – | remaining activity | 94%
O=C(NC1CCC1)c1ccc2nc(-c3cccc(NS(=O)(=O)NCCN4CCCCC4)c3)cn2c1 | ERBB2 | enzyme activity | – | 10 µM | – | remaining activity | 69%
CN(C)CC#Cc1ccc2[nH]c3c(c2c1)-c1nc(N)ncc1CCC3 | TAOK1 | kinase activity, inhibitor, radiometric | – | 1 µM, added: ATP at Km | – | remaining activity | 72%
OC[C@H]1OC(O)[C@H](O)[C@@H](O)[C@@H]1O (stereo partly drawn) | Alpha-L-fucosidase AlfC (Lacticaseibacillus rhamnosus, UniProt A0A809N2S1) | inhibitor | – | 1000 µM, 5 min | relative to: untreated | remaining activity | 107 ± 2.4%
CCOc1cc(N2CCN(C)CC2)ccc1Nc1nc(N)n(C(=O)NCc2ccccc2S(=O)(=O)C(C)C)n1 | Hormonally up-regulated neu tumor-associated kinase (HUNK, Homo sapiens, UniProt P57058) | enzyme activity | – | 10 µM | relative to: control | remaining activity | 1%
Fc1ccc(-c2nc3cc(F)ccn3c2-c2ccncc2)cc1 | Casein kinase I isoform alpha (CSNK1A1, Homo sapiens, UniProt P48729) | kinase activity, inhibitor, ADP-Glo | – | 1.176 µM, 0.5 h | – | remaining activity | 16.4%
COc1cc(Nc2ncc3c(n2)-c2ccc(Cl)cc2C(c2c(F)cccc2OC)=NC3)ccc1C(=O)O | PTK6 | kinase activity | – | 1 µM | – | remaining activity | 93%
C=CC(=O)N1CCC[C@@H](n2nc(-c3ccc(Oc4ccccc4)cc3)c3c(N)ncnc32)C1 | ERBB2 | kinase activity, inhibitor, HotSpot radiometric | – | 100 nM, added: ATP 10 µM | – | remaining activity | 8.1 ± 0.4%
Cn1cc(-c2ccc(-c3cncc(Cl)c3N3CCC4(CCNC4=O)CC3)cc2)cn1 | COLO 205 | gene expression, microarray, item: S100A10 mRNA | – | concentration not given, 6 h | relative to: untreated cells | log2 fold change | 6.11
C=CC(=O)N1CCC[C@@H](n2nc(-c3ccc(Oc4ccccc4)cc3)c3c(N)ncnc32)C1 | Ephrin type-B receptor 4 (EPHB4, Homo sapiens, UniProt P54760) | – | – | 0.1 µM | – | remaining activity | 122%
O=C(O)c1cc(N=Cc2ccccc2O)cc(C(=O)O)c1 | Lysine-specific demethylase 4B (KDM4B, Homo sapiens, UniProt O94953) | – | – | concentration not given | – | remaining activity | 62%
N[C@@H]1CC[C@@H](c2ccc(Cl)c(Cl)c2)c2ccccc21 | Sodium-dependent dopamine transporter (SLC6A3, Homo sapiens, UniProt Q01959, S422A) | dopamine uptake | – | 0.0001 µM, 0.03333 h, S422A mutant, added: [3H]dopamine | relative to: no inhibitor | remaining activity | 112%
COc1cc(N2CCN(C)CC2)ccc1Nc1nc(N)n(C(=S)NCc2c(Cl)cccc2Cl)n1 | Serine/threonine-protein kinase 17B (STK17B, Homo sapiens, UniProt O94768) | enzyme activity | – | 10 µM | relative to: control | remaining activity | 0.45%
COc1cc(F)ccc1-c1ncnc(Nc2cccc(C[S@](C)(=N)=O)c2)n1 | Protein kinase C delta type (PRKCD, Homo sapiens, UniProt Q05655) | kinase activity | – | 10 µM, added: 10 µM ATP | – | remaining activity | 96%
NC(=O)c1ccc[n+](C2OC(COP(=O)(O)OP(=O)(O)OCC3OC(n4cnc5c(=O)[nH]cnc54)C(O)C3O)C(O)C2O)c1 (stereo not drawn) | – | binding, MIDAS equilibrium dialysis LC-MS | A2AR-BRIL thermostabilized | concentration not given | relative to: no-protein control | log2 fold change | -0.16
O=C(O)c1ccc(Nc2ncc3c(n2)-c2ccc(Cl)cc2C(c2c(F)cccc2F)=NC3)cc1 | human PKBα(h) | kinase activity | – | 1 µM | – | remaining activity | 101%
NC/C(=C\F)COc1cccc(Cn2c(=S)[nH]c(=O)c3[nH]cnc32)c1 | Peroxidasin homolog (PXDN, Homo sapiens, UniProt Q92626) | enzyme activity, inhibitor, Amplex UltraRed | – | 0.625 µM | relative to: control | remaining activity | 98.1% and 98.4%
O=C(O)CCc1nccs1 | USP16 ZnF-UBD domain | – | – | – | – | Kd | 331 µM
C1=C/COCc2cc(ccc2OCCN2CCCC2)Nc2nccc(n2)-c2cccc(c2)COC/1 | Epidermal growth factor receptor (EGFR, Homo sapiens, UniProt P00533, L858R) | – | – | concentration not given | relative to: untreated control | remaining activity | 71%
Cc1cc(Nc2cc(N3CCN(C)CC3)nc(Sc3ccc(NC(=O)C4CC4)cc3)n2)[nH]n1 | TAOK1 | kinase activity, KinaseProfiler | – | 0.03 µM, species human | relative to: control | remaining activity | 107%
CNc1ncc2c(/C=C/C(=O)N3CCC(OC)CC3)nn(Cc3cccc(C(F)(F)F)c3)c2n1 | Mitogen-activated protein kinase kinase kinase 10 (MAP3K10, Homo sapiens, UniProt Q02779) | kinase activity, inhibitor | – | 1 µM | relative to: untreated control | remaining activity | 100%

Repeated from above:
SMILES | target or system | test | system | setting | how to read | quantity | value
COc1cc(F)ccc1-c1ncnc(Nc2cccc(C[S@](C)(=N)=O)c2)n1 | Protein kinase C delta type (PRKCD, Homo sapiens, UniProt Q05655) | kinase activity | – | 10 µM, added: 10 µM ATP | – | remaining activity | 96%
NC(=O)c1ccc[n+](C2OC(COP(=O)(O)OP(=O)(O)OCC3OC(n4cnc5c(=O)[nH]cnc54)C(O)C3O)C(O)C2O)c1 (stereo not drawn) | – | binding, MIDAS equilibrium dialysis LC-MS | A2AR-BRIL thermostabilized | concentration not given | relative to: no-protein control | log2 fold change | -0.16
